Measured values pooled from the literature.
Lines come from different studies, so protocols differ. Several values in a cell are separate wells, animals, samples, runs or records. ± gives the spread as reported.
lasR: Transcriptional activator protein LasR (lasR, Pseudomonas aeruginosa, UniProt P25084)
Uncharacterized hydrolase SAUSA300_2518: Uncharacterized hydrolase SAUSA300_2518 (Staphylococcus aureus, UniProt Q2FDS6)
ZAP70: Tyrosine-protein kinase ZAP-70 (ZAP70, Homo sapiens, UniProt P43403)

SMILES | target | test | test system | conditions | inhibition
O=C(O)c1ccc(-c2nc(-c3ccccc3Cl)c3sccn23)cc1 | Cholecystokinin receptor type A (CCKAR, Homo sapiens, UniProt P32238) | binding | – | 10 µM | 47%
CN(C)[C@H]1C[C@@]23CC[C@@]4(O2)C(=CC[C@]2(C)[C@@H](c5ccc6ccncc6c5)CC[C@H]24)C=C3[C@@H](O)[C@@H]1O | Serine/threonine-protein kinase 3 (STK3, Homo sapiens, UniProt Q13188) | ATP probe labelling, inhibitor, KiNativ profiling | – | 1 µM | -3.9%
O=C(CN1CN(c2ccccc2)C2(CCN(C(=O)c3cnc4[nH]ncc4c3)CC2)C1=O)NCC(F)(F)F | Ribosomal protein S6 kinase alpha-6, C-terminal kinase domain (RPS6KA6, Homo sapiens, UniProt Q9UK32) | inhibitor | – | concentration not given | < 50%
CCCCCCCCCC(=O)CC(=O)Nc1cccc(OC)c1 | lasR | reporter gene, antagonist | Pseudomonas aeruginosa PAO-JP2 | 100 µM, plasI-LVAgfp reporter, added: OdDHL 150 nM | 42%
N[C@H](C(=O)N1CCCC1)C1CCN(c2nccc3c(-c4ncc(Cl)cc4Cl)cccc23)CC1 | Protein-arginine deiminase type-4 (PADI4, Homo sapiens, UniProt Q9UM07) | enzyme activity, inhibitor | – | 3.84 µM, added: Ca2+ 0.25 mM | 101%
COc1ccc2c(c1O)-c1c(O)c(OC)cc3c1[C@H](C2)[N+](C)(C)CC3 | 3',5'-cyclic-AMP phosphodiesterase 4D (PDE4D, Homo sapiens, UniProt Q08499) | enzyme activity, inhibitor, radiometric | – | 50 µM | 81.9%
C=CC(=O)Nc1cc(-c2nn(C3CCC(N4CCN(C(C)=O)CC4)CC3)c3ncnc(N)c23)ccc1Oc1ccccc1 (stereo not shown) | Serine/threonine-protein kinase A-Raf (ARAF, Homo sapiens, UniProt P10398) | inhibitor, KiNativ profiling | biochemical | 2 µM | 10.8%
Cc1ccc(OS(=O)(=O)F)c(C(=O)Nc2ccncc2)c1 | Uncharacterized hydrolase SAUSA300_2518 | enzyme activity, inhibitor | – | 50 µM | 90%
COc1ccc(F)cc1S(=O)(=O)Nc1cnc2c(c1)C(=O)NCCO2 | GABAA receptor chloride channel | radioligand binding | – | 10 µM | -7%
CS(C)(=O)=Nc1ccc(-c2ccc(-c3nc4cc(O[C@@H]5CO[C@H]6[C@@H]5OC[C@H]6O)[nH]c4cc3F)cc2)cc1 | Ribosomal protein S6 kinase beta-1 (RPS6KB1, Homo sapiens, UniProt P23443) | enzyme activity, inhibitor | – | 10 µM | 18%
O=C(O)/C(S)=C/c1c[nH]c2ccc(F)cc12 | Ribosomal processing cysteine protease Prp (prp, Staphylococcus aureus, UniProt Q2FXS9, N63Q) | enzyme activity, inhibitor | – | 10 µM, prp 21.4 nM, added: FITC peptide substrate 0.5 µM | 0.6 ± 19.2%
O=C(CCCc1ccccc1)NC1CCOC1=O (stereo not shown) | lasR | reporter gene, antagonist | Escherichia coli JLD271 | 10 µM, pSC11 and pJN105L plasmids, added: OdDHL 2 nM | 55%
COc1cc(OC)cc(B(O)O)c1 | Uncharacterized hydrolase SAUSA300_2518 | enzyme activity, inhibitor | – | 50 µM | 93.8%
CCCCCCCCCC(=O)CC(=O)Nc1ccccc1 | lasR | reporter gene, antagonist | Pseudomonas aeruginosa PAO-JP2 | 100 µM, plasI-LVAgfp reporter, added: OdDHL 150 nM | 65%
O=C(O)c1ccccc1/C=N/Nc1nc(-c2ccccc2Cl)cs1 | Mitogen-activated protein kinase kinase kinase kinase 1 (MAP4K1, Homo sapiens, UniProt Q92918) | enzyme activity, inhibitor | – | 1 µM | -2.47%
O=C(CCc1ccc(C(F)(F)F)cc1)N[C@H]1CCOC1=O | lasR | reporter gene, antagonist | Pseudomonas aeruginosa PAO-JP2 | 100 µM, plasI-LVAgfp reporter, added: OdDHL 150 nM | 21%
C[C@H](NCc1ccc(-c2ccc(C(F)(F)F)cc2)cc1)C(N)=O | ZAP70 | cell-free assay, competition with immobilised ligand | – | 1 µM | 0%
CCC1CC(c2ccc(C(=O)O)cc2C)=NN1c1ccc(C#N)c(Cl)c1 (stereo not shown) | Histone-lysine N-methyltransferase 2B, complex (KMT2B, Homo sapiens, UniProt Q9UMN6) | enzyme activity | – | 10 µM | 4%
CC(=O)NC[C@@H]1C[C@@H](O)[C@H]2[C@H](O)C[C@@H](CO)N12 | β-N-acetylglucosaminidase | enzyme activity, inhibitor, colorimetric | Canavalia ensiformis | 150 nM, added: p-nitrophenyl GlcNAc substrate | 48.1% and 43.6%
CN(/N=C/c1ccccc1C(=O)O)c1nc(-c2ccccc2Cl)cs1 | ZAP70 | enzyme activity, inhibitor | – | 1 µM | -30.4%
O=C(CCCOc1ccc(Cl)cc1)N[C@H]1CCOC1=O | lasR | reporter gene, antagonist | Pseudomonas aeruginosa PAO-JP2 | 100 µM, plasI-LVAgfp reporter, added: OdDHL 150 nM | 60%
CC(C)[C@H]1NC(=O)C[C@H]2/C=C/CCSSC[C@@H](NC1=O)C(=O)N[C@H](Cc1cccc3ccccc13)C(=O)NCC(=O)O2 | Serine/threonine-protein kinase pim-1 (PIM1, Homo sapiens, UniProt P11309) | enzyme activity, inhibitor | – | 10 µM | 2.6%

Some of these lines once more:
SMILES | target | test | test system | conditions | inhibition
CC(=O)NC[C@@H]1C[C@@H](O)[C@H]2[C@H](O)C[C@@H](CO)N12 | β-N-acetylglucosaminidase | enzyme activity, inhibitor, colorimetric | Canavalia ensiformis | 150 nM, added: p-nitrophenyl GlcNAc substrate | 48.1% and 43.6%
CN(/N=C/c1ccccc1C(=O)O)c1nc(-c2ccccc2Cl)cs1 | ZAP70 | enzyme activity, inhibitor | – | 1 µM | -30.4%
O=C(CCCOc1ccc(Cl)cc1)N[C@H]1CCOC1=O | lasR | reporter gene, antagonist | Pseudomonas aeruginosa PAO-JP2 | 100 µM, plasI-LVAgfp reporter, added: OdDHL 150 nM | 60%
